Experimental data gathered from unrelated publications.
Every numbered part comes from another study and shows a few of its results, in no order. Substitutions count along the parent as printed.
Chain of UniProt Q9Y5N1 (whole entry, looked up): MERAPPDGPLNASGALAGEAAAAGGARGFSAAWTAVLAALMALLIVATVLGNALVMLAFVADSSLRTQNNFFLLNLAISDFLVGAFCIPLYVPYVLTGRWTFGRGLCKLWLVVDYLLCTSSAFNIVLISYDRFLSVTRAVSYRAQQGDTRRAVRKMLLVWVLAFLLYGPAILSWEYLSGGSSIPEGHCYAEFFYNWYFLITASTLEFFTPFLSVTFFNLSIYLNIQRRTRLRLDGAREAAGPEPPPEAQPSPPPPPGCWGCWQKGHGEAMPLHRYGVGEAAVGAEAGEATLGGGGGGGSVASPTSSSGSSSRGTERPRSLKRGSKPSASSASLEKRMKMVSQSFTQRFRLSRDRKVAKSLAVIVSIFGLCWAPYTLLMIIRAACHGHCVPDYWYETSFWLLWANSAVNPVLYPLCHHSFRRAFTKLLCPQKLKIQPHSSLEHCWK

Series 1 — technique: protein-binding microarray; form: double-stranded DNA, one strand shown; matrix: in vitro; tested at: 0.8 µM; setting: whole 60-bp probe, no competitor; reading: higher = stronger binding
Target: Centromere-binding protein 1, full length, N-terminal tag (CBF1, Saccharomyces cerevisiae, UniProt P17106, residues 1-351)
Chain of UniProt P17106 (whole entry, looked up): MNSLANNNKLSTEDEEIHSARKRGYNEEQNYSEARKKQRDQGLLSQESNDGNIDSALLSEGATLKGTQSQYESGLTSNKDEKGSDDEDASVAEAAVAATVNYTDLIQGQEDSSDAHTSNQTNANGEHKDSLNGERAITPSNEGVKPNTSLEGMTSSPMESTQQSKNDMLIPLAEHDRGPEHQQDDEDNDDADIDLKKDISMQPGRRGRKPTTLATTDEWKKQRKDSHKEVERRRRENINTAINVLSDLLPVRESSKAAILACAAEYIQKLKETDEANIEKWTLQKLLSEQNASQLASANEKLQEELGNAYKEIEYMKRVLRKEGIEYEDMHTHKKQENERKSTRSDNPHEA
Strand	fluorescence intensity [a.u.]
GAATTCAGCAATGGCCGCACGCCAGGACATGTGTAGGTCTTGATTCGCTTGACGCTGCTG	485
GAACTGAACTTGTTTCATGAGACTCATATCCAGTAGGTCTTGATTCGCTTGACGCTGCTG	540
CTATAGAAGGAAAAGCACATGGTACCCAGGCAGTTCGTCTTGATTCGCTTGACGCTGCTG	656
GAATGATAACGCTTCAACGTGCAAAGGAACCGTTAGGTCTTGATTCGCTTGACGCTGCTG	612
GAATTCTTCAACTATCGCGTGAAAAATAGTACGTAGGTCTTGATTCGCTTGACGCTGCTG	603
GAAGAGGAAATATCAGGTGTGCCAATACGTTAATAGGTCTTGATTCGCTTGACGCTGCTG	650
GAAAAATAATACATTCACCACGCTTGTTAAAAATAGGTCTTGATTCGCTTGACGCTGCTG	523
GAATTTGACTCAAGTGTCACGTGCATCAGTTTTTAGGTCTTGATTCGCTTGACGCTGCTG	15900

Series 2 — target: CCND2, cyclin fold, Cln2 fusion (human); technique: yeast growth competition, sequencing; matrix: yeast; setting: weak parent motif; baseline: not given; reading: higher = stronger binding; parent: viral docking peptide; TSVRRALFTGGSD
Change	normalised enrichment score
TSVRRYLFTGGSD [A6Y]	-0.617
TSVSRALFTGGSD [R4S]	0.288
TSVRRALFTMGSD [G10M]	-0.0409
TSVRRALFTGCSD [G11C]	0.0853
TDVRRALFTGGSD [S2D]	-0.222
TSERRALFTGGSD [V3E]	0.0886
TSVRRALRTGGSD [F8R]	-0.0519
TSVRRALSTGGSD [F8S]	0.333
TSQRRALFTGGSD [V3Q]	-0.312
TSVRRFLFTGGSD [A6F]	-0.11
TNVRRALFTGGSD [S2N]	0.0802
TSVRRALFTGGMD [S12M]	0.0383
TSVRRKLFTGGSD [A6K]	-0.091
TSVRRRLFTGGSD [A6R]	-0.109
TSVRRALFRGGSD [T9R]	0.00582
TIVRRALFTGGSD [S2I]	-0.12
TSVRRAWFTGGSD [L7W]	0.142
TSVRKALFTGGSD [R5K]	-0.159
TSVRRALFTAGSD [G10A]	0.23
TSVRRCLFTGGSD [A6C]	0.225
TSVRRADFTGGSD [L7D]	-0.164
TSVRRALFHGGSD [T9H]	0.181
TSVRRPLFTGGSD [A6P]	-0.116
TSVRRALFTEGSD [G10E]	0.437
TSVRQALFTGGSD [R5Q]	0.0966

Series 3 — technique: aptamer microarray, sandwich; form: DNA with 2'F-ANA; matrix: in vitro; tested at: 200 nM; with: Cy3 exosite-II aptamer, 400 nM; reading: higher = stronger binding; strand: GGTTGGTGTGGTTGG
Target: Prothrombin, mature alpha-thrombin (F2, Homo sapiens, UniProt P00734)
Setting: whole 15-mer aptamer, many near background
Modification	mean fluorescence intensity [a.u.]
2'F-ANA at 2 6 7 8 9 10 12 13 14 15	90.4
2'F-ANA at 1 4 8 10 11	57.1
2'F-ANA at 1 4 7 9 10 13	46.7
2'F-ANA at 2 3 5 15	110
2'F-ANA at 5 6 7 10 12 14	46.5
2'F-ANA at 1 4 5 6 9 10 11 15	51.5
2'F-ANA at 1 3 4 5 8 14	44.5
2'F-ANA at 1 3 4 5 7 8 10 12	49.8

Series 4 — target: CRIPT, C-terminal peptide; technique: DHFR complementation, deep sequencing; matrix: yeast; baseline: wild type; reading: higher = weaker binding
Setting: single substitutions, model-inferred values
Parent: ERBIN, PDZ domain 1 (human); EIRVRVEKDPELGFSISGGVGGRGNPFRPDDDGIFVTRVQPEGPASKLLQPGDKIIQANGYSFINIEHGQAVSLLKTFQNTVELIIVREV; partner TKNYKQTSV
Change	binding free energy change
D32I	0.317 kcal/mol
V90K	-0.0372 kcal/mol
R38Q	-0.127 kcal/mol
S62W	0.0218 kcal/mol
I56P	0.658 kcal/mol
G52R	0.362 kcal/mol
K54L	0.213 kcal/mol
G33S	0.497 kcal/mol

Single results of other studies
SMILES	target	observed	technique	tested at	endpoint	result
CNC(=O)c1cc(C(=O)NC2CC2)cn(Cc2ccccc2)c1=O	Histamine H3 receptor (HRH3, Homo sapiens, UniProt Q9Y5N1)	binding	radioligand binding	10 µM	inhibition	-8.16%
